Experimental data collected from several papers.
Every numbered part comes from another study and shows a few of its results, in no order. Changes are numbered by the printed parent chain.

Set 1 — target: CCND2, cyclin fold, Cln2 fusion (human); method: yeast growth competition, sequencing; sample: yeast; setting: weak parent motif; reference: not given; direction: higher = stronger binding
Starting sequence: SCAPER docking peptide (human); SNARRSLNFGGST; partner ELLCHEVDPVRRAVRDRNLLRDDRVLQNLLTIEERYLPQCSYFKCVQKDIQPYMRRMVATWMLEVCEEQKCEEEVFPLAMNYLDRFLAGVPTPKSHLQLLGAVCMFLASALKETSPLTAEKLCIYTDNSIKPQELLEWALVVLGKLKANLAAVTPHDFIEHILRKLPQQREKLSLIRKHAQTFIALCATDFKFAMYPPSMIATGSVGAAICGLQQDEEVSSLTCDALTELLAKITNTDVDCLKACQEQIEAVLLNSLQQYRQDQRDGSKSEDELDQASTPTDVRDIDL
`S1K`: “normalised enrichment score” 0.35.
For `L7H`, “normalised enrichment score” read 0.255.
Under “normalised enrichment score”, `S6W` is recorded as 0.399.
`S12Y` — result for “normalised enrichment score”: 0.439.

Set 2 — method: RNA Bind-n-Seq; form: RNA; sample: in vitro; concentration: 200 nM; setting: whole 134-nt RNA, ends assumed; with: 150 mM KCl; reference: input library; direction: higher = stronger binding
Target: Ras GTPase-activating protein-binding protein 1, full length (G3BP1, Homo sapiens, UniProt Q13283)
Chain of UniProt Q13283 (whole entry, looked up): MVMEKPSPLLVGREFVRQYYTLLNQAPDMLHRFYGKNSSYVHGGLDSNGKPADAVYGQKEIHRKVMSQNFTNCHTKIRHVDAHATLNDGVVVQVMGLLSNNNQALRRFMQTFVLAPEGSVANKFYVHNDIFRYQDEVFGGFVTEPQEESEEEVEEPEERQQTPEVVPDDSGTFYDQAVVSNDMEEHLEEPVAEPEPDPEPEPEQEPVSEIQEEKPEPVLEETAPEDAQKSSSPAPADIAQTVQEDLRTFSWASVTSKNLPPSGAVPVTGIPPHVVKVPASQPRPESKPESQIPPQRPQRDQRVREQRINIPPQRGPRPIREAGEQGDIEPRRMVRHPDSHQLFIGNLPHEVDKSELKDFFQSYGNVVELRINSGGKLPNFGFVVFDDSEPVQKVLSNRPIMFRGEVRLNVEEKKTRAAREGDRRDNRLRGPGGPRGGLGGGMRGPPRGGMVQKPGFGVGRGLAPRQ
`GGGAGUUCUACAGUCCGACGAUCGCAGGAAGUAAAAACAAGUGGAAAUGCUUCGGAUAGUGGCAGGGGUGGGGGUUGCUAAGGAAAGGGUGGGAUGGGAGUGGGUAAAGAGUUUGGAAUUCUCGGGUGUCAAGG` has a log2 enrichment of 1.39.
With `GGGAGUUCUACAGUCCGACGAUCUCCUGUGCUACACAUCGUAUGUACCGAAUCGGGGUUUUUUUGGGGUUUUUGGGGUGGGGAAAGUAUUAUGUUACGCCGUUCGGAUCUGCAUGGAAUUCUCGGGUGUCAAGG` the log2 enrichment was 0.506.
`GGGAGUUCUACAGUCCGACGAUCAAGUCCUGUGCUACACAUCGUAUGUACCGAAUCGGGAAAAAAAGGGAGGGAAAGGGAAAGUAUUAUGUUACGCCGUUCGGAUCUGCACUUUGGAAUUCUCGGGUGUCAAGG` has a log2 enrichment of 0.233.
`GGGAGUUCUACAGUCCGACGAUCACCAUGCAGGUGGGCAUCUUUGGGAAGUGGGGCAAGGGGGGGAUAGGGAGGGGGGUAACACUUUGGGAACAGGUGGGCCCAGGUCGUUUCUGGAAUUCUCGGGUGUCAAGG` gave a log2 enrichment of 1.14.

Set 3 — method: protein binding microarray; form: double-stranded DNA, one strand shown; sample: in vitro; concentration: not given; reference: not given; direction: higher = stronger binding
Target: Histone acetyltransferase KAT6A, winged helix 2, GST fusion (KAT6A, Homo sapiens, UniProt Q92794, residues 85-181)
Setting: 8-mer, flanks averaged, mean of 2 arrays, mostly near background
Construct (chain): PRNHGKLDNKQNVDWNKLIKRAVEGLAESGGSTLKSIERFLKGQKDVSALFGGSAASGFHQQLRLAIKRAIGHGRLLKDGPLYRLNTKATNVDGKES
With `AAACAATG` the E-score was -0.0335.
The E-score of `CCCGAAGG` is reported as 0.197.
`CCTTACGC` gave an E-score of -0.0897.
For `ACCGACGG`, the E-score was 0.171.
`ACGTAACG` has an E-score of -0.246.

Single results of other studies
`PhoQ, residues 284 288 289 292 302 303 SNGLAW` gave a fold induction of 13.3 (PhoP, residues 12 14 15 18 19 SEGLL (Escherichia coli, UniProt P23836); Sort-seq, item: YFP reporter; E. coli; PhoQ-PhoP variant library, with: 10 µM Mg2+; reference: high Mg2+ state, higher = stronger signaling).

Excerpt of the above (set 2):
With `GGGAGUUCUACAGUCCGACGAUCUCCUGUGCUACACAUCGUAUGUACCGAAUCGGGGUUUUUUUGGGGUUUUUGGGGUGGGGAAAGUAUUAUGUUACGCCGUUCGGAUCUGCAUGGAAUUCUCGGGUGUCAAGG` the log2 enrichment was 0.506.
